Measurements from different studies.
Protocols differ between the studies behind these lines. ± marks the error that the study gave.
Ugcg: Ceramide glucosyltransferase (Ugcg, Mus musculus, UniProt O88693)
RAD52: DNA repair protein RAD52 homolog (RAD52, Homo sapiens, UniProt P43351)
EGFR: Epidermal growth factor receptor (EGFR, Homo sapiens, UniProt P00533)
DRD3: D(3) dopamine receptor (DRD3, Homo sapiens, UniProt P35462)
CHEK2: Serine/threonine-protein kinase Chk2 (CHEK2, Homo sapiens, UniProt O96017)

| Compound | target | test | test system | setting | IC50 |
| --- | --- | --- | --- | --- | --- |
| C=CC(=O)Nc1cc(Nc2ncnc(Nc3cc(Cl)c(F)cc3C(C)(C)O)n2)c(OC)cc1N(C)CCN(C)C | EGFR (Homo sapiens, UniProt P00533, L858R/T790M) | enzyme activity, inhibitor |  |  | 0.0003 µM |
| Cc1n[nH]c(C)c1CCCOc1cc(C(=O)NCCCCC(NC(=O)CN2CCN(CC(=O)O)CCN(CC(=O)O)CCN(CC(=O)O)CC2)C(=O)NCC2CCC(C(=O)NC(Cc3ccc4ccccc4c3)C(=O)NCCCCC(NC(=O)NC(CCC(=O)O)C(=O)O)C(=O)O)CC2)ccc1F (stereo not drawn) | FOLH1 (Homo sapiens, UniProt Q04609) | competitive binding | 22Rv1 | added: [68Ga]PSMA-617 | 0.00342 µM |
| CSc1ccc(NC(=O)c2cnn(-c3ccc([N+](=O)[O-])cc3)c2C(F)(F)F)cc1 | PTGS2 (Homo sapiens, UniProt P35354) | enzyme activity, inhibitor |  |  | 8.98 µM |
| C=CS(=O)(=O)c1ccc(OC)c(-c2c[nH]c3ncc(-c4cncc(C(=O)N(C)C)c4)cc23)c1 | ABL1 (Homo sapiens, UniProt P00519) | kinase activity, inhibitor, HTRF |  | 1 h preincubation, added: ATP 20 µM | > 1 µM |
| OC[C@@H]1[C@@H](O)[C@H](O)[C@@H](O)CN1CCCCCOCc1ccc(-c2ccnc(F)c2)cc1 | Ugcg | enzyme activity, inhibitor, fluorescence |  |  | 0.15 µM |
| CC(=O)OC1OC(OC(C)=O)C2CC(O)(C3(C)CCCC(C)(C)C3)CCC12 (stereo not drawn) | PPIA (Homo sapiens, UniProt P62937) | enzyme activity, inhibitor |  |  | 0.064 µM |
| Cc1nn(-c2cccc(N)c2)c(=O)c2cnc(Nc3ccc(N4CCNCC4)cc3)nc12 | EGFR (Homo sapiens, UniProt P00533, T790M) | enzyme activity, inhibitor |  |  | > 10 µM |
| OC[C@H]1[C@@H](O)[C@H](O)[C@@H](O)CN1CCCCCOCc1ccc(-c2ccccc2)c(C(F)(F)F)c1 | Ugcg | enzyme activity, inhibitor, fluorescence |  |  | 0.003 µM |
| COCC1CN(C2CCN(c3cc(OC)c(Nc4ncc(Br)c(Nc5ccc6c(c5P(C)(C)=O)OCCO6)n4)cc3C)CC2)C1 | EGFR (Homo sapiens, UniProt P00533, del746-750/T790M) | kinase activity, TR-FRET |  | added: ATP at Km | 0.00019 µM |
| Cc1ccc(C(=O)c2oc3ccc(Cl)cc3c2NC(=O)CN2CCN(C)CC2)cc1 | RAD52 | D-loop formation |  | added: RAD52 450 nM | 17.6 ± 0.78 µM |
| COc1cc(N2CCOCC2)ccc1Nc1ncc(Cl)c(Nc2ccccc2NS(C)(=O)=O)n1 | EGFR | cell-free assay |  |  | 0.0212 µM |
| C[C@@H](OCCCCCN1C[C@H](O)[C@@H](O)[C@H](O)[C@H]1CO)c1ccc(-c2ccccc2)cc1 | Ugcg | enzyme activity, inhibitor, fluorescence |  |  | 0.06 µM |
| Cn1nc(-c2ccc(Cl)cc2)c2cc(C(=O)NCCCN3CCCCCC3)sc21 | RAD52 | D-loop formation |  | added: RAD52 450 nM | 6.7 ± 0.78 µM |
| CCN(CC)CC(=O)Nc1cccc(-n2cc(-c3ccc4ccc(-c5cn(-c6cccc(NC(=O)CN(CC)CC)c6)nn5)cc4c3)nn2)c1 | CSNK1G3 (Homo sapiens, UniProt Q9Y6M4) | enzyme activity, inhibitor |  |  | > 10 µM |
| COc1cc(O)cc(CCc2ccc(OC)c(O)c2CC=C(C)C)c1 | Si (Rattus norvegicus, UniProt P23739) | enzyme activity, inhibitor, absorbance |  |  | 970 µM |
| Cc1[nH]c(C)c(S(=O)(=O)Nc2cccc(Cl)c2)c1C(=O)N1CCCC1 | DRD3 | β-arrestin recruitment, antagonist |  |  | 21 µM |
| CNCc1ccc2c(c1)N(C(=O)OCc1ccccc1)[C@H](CNC(=N)N)[C@H]2NC(=O)C(=O)Nc1ccc(Cl)c(F)c1 | env (Human immunodeficiency virus 1, UniProt Q2N0S5) | HIV-1 infection | Cf2Th-CD4/CCR5 cells | 48 h | 28.3 µM |

| Compound | target | test | test system | setting | IC50 |
| --- | --- | --- | --- | --- | --- |
| Cc1cc(C)c(S(=O)(=O)N(CC(=O)O)c2ccc(Nc3ccnc(N4CCCC4)n3)cc2)c(C)c1 | CHEK2 | enzyme activity, inhibitor |  |  | > 100 µM |
| CC(C)C[C@H](NC(=O)[C@H](CC(=O)O)NC(=O)[C@H](C)N)C(=O)N1CCC[C@H]1C(=O)N[C@@H](Cc1ccccc1)C(=O)N[C@@H](CCC(=O)O)C(=O)N[C@H](Cc1ccccc1)C(N)=O | Transcriptional regulator PlcR (Bacillus thuringiensis, UniProt A0ACM8Q0N2) | reporter gene, inhibitor, lacZ reporter | 407 Cry− |  | 1.22 ± 0.07 µM |
| CC(C)(C)CCOCCCCCN1C[C@H](O)[C@@H](O)[C@H](O)[C@H]1CO | Ugcg | enzyme activity, inhibitor | RAW264.7 | in situ, added: C6-NBD-ceramide | 0.76 µM |
| COc1ccc(Nc2cc(NC3CC3)n3ncc(C#N)c3n2)cc1 | CHEK2 | inhibitor |  |  | > 10 µM |
| Cc1cc(NC2CCN(C)CC2)ccc1-c1cc2c(N3CCC[C@H](C(=O)NCc4ccc(OC(F)(F)F)cc4)C3)ncnc2[nH]1 | EGFR | enzyme activity, inhibitor, mobility shift |  |  | 0.981 µM |
| Cc1[nH]c(C)c(S(=O)(=O)Nc2ccc(F)cc2)c1C(=O)N1CCCC1 | DRD3 | Go activation, antagonist, BRET |  | added: dopamine | 9.7 ± 1.1 µM |
| COc1cc(NC(=O)c2ccc([N+](=O)[O-])cc2)ccc1NC(=O)c1ccc([N+](=O)[O-])cc1 | Apelin receptor (APLNR, Homo sapiens, UniProt P35414) | β-arrestin recruitment, antagonist |  |  | 9.5 µM |
| Cc1sc2nc(CN(Cc3ccccc3Cl)c3ccc4[nH]c(=O)[nH]c4c3)[nH]c(=O)c2c1C | PLA2G4A (Homo sapiens, UniProt P47712) | enzyme activity, inhibitor, fluorescence |  |  | 8.3 µM |
| Fc1ccc(Nc2nc(NC3CCCCC3)c3ccccc3n2)cc1F | ADRB2 (Homo sapiens, UniProt P07550, T164V) | β-arrestin2 recruitment, antagonist, BRET | HEK293 | mutant T164V, added: isoprenaline 1 µM | 2.51 µM |
| OC[C@@H]1[C@@H](O)[C@H](O)[C@@H](O)CN1CCCCCOCc1ccccc1 | Ugcg | enzyme activity, inhibitor, fluorescence |  |  | 0.75 µM |
| COc1c(Cl)cccc1Nc1c(-c2ccncc2C#C[C@@]2(C)CCCN2C(=O)/C=C/CN(C)C)[nH]c2c1C(=O)NCC2 | EGFR |  |  |  | 0.0051 µM |
| CCCCCCCN1C[C@H](O)[C@@H](O)[C@H](O)[C@H]1CO | Ugcg | enzyme activity, inhibitor, fluorescence |  |  | 20 µM |
| O[C@H]1[C@H](O)[C@@H](O)c2[nH]cnc2[C@@H]1O | sweet almond β-glucosidase | inhibitor |  | 30 min, pH 6.8, added: p-nitrophenyl β-D-glucopyranoside | > 100 µM |
| CC(C)COCCCCCN1C[C@H](O)[C@@H](O)[C@H](O)[C@H]1CO | Ugcg | enzyme activity, inhibitor | RAW264.7 | in situ, added: C6-NBD-ceramide | 4 µM |
| COc1ccc(-c2nc(C(=O)NCCCN3CCOCC3)cc3c2[nH]c2ccccc23)cc1OC | RAD52 | D-loop formation |  | added: RAD52 450 nM | 7.2 ± 0.28 µM |
| CCn1nc(Cl)c2c1-c1cnc(N)c(c1)O[C@H](C)c1cc(F)ccc1-c1nn(C)cc1C2 | ALK (Homo sapiens, UniProt Q9UM73, I1171T) | enzyme activity, inhibitor |  | added: 1 mM ATP | 0.0036 µM |

Excerpt of the above:
| Compound | target | test | test system | setting | IC50 |
| --- | --- | --- | --- | --- | --- |
| Cc1cc(NC2CCN(C)CC2)ccc1-c1cc2c(N3CCC[C@H](C(=O)NCc4ccc(OC(F)(F)F)cc4)C3)ncnc2[nH]1 | EGFR | enzyme activity, inhibitor, mobility shift |  |  | 0.981 µM |
| COCC1CN(C2CCN(c3cc(OC)c(Nc4ncc(Br)c(Nc5ccc6c(c5P(C)(C)=O)OCCO6)n4)cc3C)CC2)C1 | EGFR (Homo sapiens, UniProt P00533, del746-750/T790M) | kinase activity, TR-FRET |  | added: ATP at Km | 0.00019 µM |
| CC(C)C[C@H](NC(=O)[C@H](CC(=O)O)NC(=O)[C@H](C)N)C(=O)N1CCC[C@H]1C(=O)N[C@@H](Cc1ccccc1)C(=O)N[C@@H](CCC(=O)O)C(=O)N[C@H](Cc1ccccc1)C(N)=O | Transcriptional regulator PlcR (Bacillus thuringiensis, UniProt A0ACM8Q0N2) | reporter gene, inhibitor, lacZ reporter | 407 Cry− |  | 1.22 ± 0.07 µM |
| COc1cc(N2CCOCC2)ccc1Nc1ncc(Cl)c(Nc2ccccc2NS(C)(=O)=O)n1 | EGFR | cell-free assay |  |  | 0.0212 µM |
